Results from different studies.
Compare with care: the assays were run in different laboratories. Numbers after ± are the reported error.

CCN(C(=O)c1cc(F)ccc1Oc1nncnc1N1CCC2(C1)CN([C@H](CCCN(C)CCOC)C(C)C)C2)C(C)C  IC50 (OCI-AML-3 (NPM1c); inhibitor, QuantiGene multiplex, refers to: MEIS1 mRNA): 0.141 ± 0.08 µM
O=C(NCc1cc(F)cc(F)c1)[C@@]1(O)CCN(c2ccc3[nH]ccc3c2)C1=O  IC50 (SW1990; cell growth or viability): > 30 µM
Cc1cc(C)cc(COc2cc3c(cc2OCc2cc(C)cc(C)c2)[C@@H]2C[C@](O)(Cc4cn(Cc5ccc(F)cc5)nn4)C[C@H](C)N2CC3)c1 (single isomer, unassigned)  IC50 (GES1; cell growth or viability, MTT; 48 h): 2.49 µM
NC(=O)c1ccc(-c2ccccc2Cl)c2c3c([nH]c12)CC[C@@H](N)C3  IC50 (Pfeiffer; cell growth or viability): 0.0124 µM
COc1ccccc1CNC[C@@](O)(COCc1ccccc1)[C@@H]1CC[C@@H](C)C[C@H]1OCc1ccccc1  IC50 (A2780; cell growth or viability, MTT; 72 h): 1.99 µM
CO[C@@H](C[C@H]1C(C)=CC[C@@H]2[C@]3(C)C[C@H](O[C@@H]4O[C@@H](C)[C@H](OC(=O)c5cccc(O)c5)[C@@H](O[C@@H]5O[C@H](CO)[C@@H](O)[C@H](O)[C@H]5NC(C)=O)[C@H]4O)[C@@H](O)C(C)(C)[C@H]3CC[C@]21C)[C@H](N)C(=O)O  IC50 (3T3 fibroblasts; cell viability, CCK-8; 72 h): > 10 µM
CC(=O)[O][Pt]([NH2])([NH2])([Cl])([Cl])[O]C(=O)C(C)c1ccc(CC(C)C)cc1 (stereo not shown)  IC50 (2008 ovarian adenocarcinoma; cytotoxicity, MTT; 72 h): 0.98 ± 0.1 µM
[Co+2].[O-]c1c(I)cc(I)c2cccnc12.[O-]c1c(I)cc(I)c2cccnc12.c1cnc2c(c1)ccc1cccnc12  IC50 (BEL-7404; cell growth or viability, MTT; 48 h): 31.5 µM
C[C@@H]1CC[C@@H]([C@](O)(CNCc2ccccc2F)COCc2ccccc2)[C@H](OCc2ccccc2)C1  IC50 (A2780; cell growth or viability, MTT; 72 h): 3.02 µM
Cn1ncc(-c2ccc3c(=O)[nH]nc(CN)c3c2)c1-c1c(F)c(Cl)cc(OC2CC2)c1C#N  IC50 (NCI-H1437; cell viability, inhibitor, CellTiter-Glo; 120 h, baseline-subtracted): 0.3 µM
[BH3-][P+]1(c2ccccc2)CCC(=O)CC1  IC50 (HaCaT; cell growth or viability, MTT; 72 h): > 100 µM
CCn1nc(Cl)c2c1-c1cnc(N)c(c1)O[C@H](C)c1cc(F)ccc1-c1nn(C)cc1C2  IC50 (Ba/F3 ETV6-TRKC; cell viability): 0.35 µM
CC(C)C(=O)Cc1c(OCC(O)C(C)(C)O)ccc2ccc(=O)oc12 (stereo not shown)  IC50 (MRC5; cell growth or viability, MTT; 72 h): > 100 µM
[BH3-][P@+]1(c2ccccc2)CC[C@@H](O)CC1  IC50 (HaCaT; cell growth or viability, MTT; 72 h): > 100 µM
CCCON(Cc1ccc(C(=O)NO)cc1)C(=O)Nc1cc(C)cc(C)c1  IC50 (SUP-B15 B-ALL; cell viability, CellTiter-Glo; 72 h): 2.16 ± 0.124 µM
O=CCNCCOn1c(=O)n(OCCNCCO)c(=O)n(OCCNCCOn2c(=O)n(OCCNCCO)c(=O)n(OCCNCCO)c2=O)c1=O  IC50 (A549; cell growth or viability, MTT; 48 h): 9.79 µg/mL
O=C(Nc1cc(-c2ccnc3[nH]ccc23)c(Cl)cn1)[C@H]1CCC[C@@H](NC(=O)C(F)(F)F)C1  IC50 (MINO; cell growth or viability; 72 h): 0.0252 µM
Cc1ccc2c(Cl)cc(Cl)c([O-])c2n1.Cc1ccc2c(Cl)cc(Cl)c([O-])c2n1.Cc1ccnc(-c2cc(C)ccn2)c1.[Co+2]  IC50 (BEL-7404; cell growth or viability, MTT; 48 h): 5.94 µM
CN1CCC(N[C@H]2CCc3[nH]c4c(C(N)=O)ccc(-c5ccccc5Cl)c4c3C2)CC1  IC50 (MINO; cell growth or viability): 3.1 µM
CCOc1cncc(-c2ccc(NC(=O)C3(c4ccnc(NS(=O)(=O)C5CC5)n4)CCOCC3)nc2)n1  IC50 (DoTc2-4510; cell growth or viability, ATP luminescence; 72 h): 10 µM
Clc1ccnc2c1ccc1c(Cl)ccnc12.[Co+2].[O-]c1c(I)cc(I)c2cccnc12.[O-]c1c(I)cc(I)c2cccnc12  IC50 (BEL-7404; cell growth or viability, MTT; 48 h): 25 µM
CCn1cc(-c2cccc(C(F)(F)F)c2)c2sc(C(=N)NC3CCS(=O)(=O)CC3)cc2c1=O  IC50 (MOLM16; cell growth or viability, ATP luminescence): 1.39 µM
O=C(C[Se]C(=O)c1ccccc1Nc1cccc(C(F)(F)F)c1)Nc1cccc(C(F)(F)F)c1  IC50 (HaCaT; cell growth or viability, MTS; 48 h): 21.7 µM
COc1ccc(CNC[C@@](O)(COCc2ccc(F)cc2)[C@@H]2CC[C@@H](C)C[C@H]2OCc2ccc(F)cc2)cc1  IC50 (A2780; cell growth or viability, MTT; 72 h): 1.39 µM
Cc1ccc2c(Br)cc(Br)c([O-])c2n1.Cc1ccc2c(Br)cc(Br)c([O-])c2n1.[Co+2].c1ccc(-c2ccccn2)nc1  IC50 (BEL-7404; cell growth or viability, MTT; 48 h): 9.02 µM
COc1cc(-c2cc(C(C)=O)n3ccccc23)cc(OC)c1Cn1ccnc1  IC50 (MOLM16; cell growth or viability, ATP luminescence): 0.45 µM
Cc1ccc2c(Cl)cc(Cl)c([O-])c2n1.Cc1ccc2c(Cl)cc(Cl)c([O-])c2n1.[Co+2].c1ccc2nc3c4cccnc4c4ncccc4c3nc2c1  IC50 (BEL-7404; cell growth or viability, MTT; 48 h): 0.25 µM
C=CC(=O)N1CCCC(n2c(=O)c3ncccc3n(Cc3ccc(Oc4ccccc4)cc3)c2=O)C1 (stereo not shown)  IC50 (MINO; cell growth or viability, MTT; 72 h): 0.1 µM
CNS(=O)(=O)Nc1nccc(Cc2c(C)c3ccc(Oc4ncccc4F)cc3oc2=O)c1F  IC50 (HCC1187; cell viability; 7 days): > 1 µM
Cc1ccc(-c2ccc(C)cn2)nc1  IC50 (BEL-7404; cell growth or viability, MTT; 48 h): > 50 µM
CC(=O)[O][Pt]([NH2])([NH2])([Cl])([Cl])[O]C(=O)CCCc1ccccc1  IC50 (2008 ovarian adenocarcinoma; cytotoxicity, MTT; 72 h): 0.78 ± 0.2 µM
CN(C)C/C=C/C(=O)Nc1cc2c(Nc3ccc(F)c(Cl)c3)ncnc2cc1O[C@H]1CCOC1  IC50 (BaF3; cell growth or viability; 72 h): 3.3 µM
Cc1nc2ccc(Br)cc2c(=O)n1N  IC50 (LoVo; cytotoxicity, LDH release; 24 h, 50% viability reduction): 1050 ± 64 µM
CC(C)c1ccc(N(C)c2ccc3c(c2)OCC[C@H]3CNc2cnccc2C(=O)O)cc1  IC50 (C2BBe1; cell growth or viability, ATP luminescence; 7 days): ≥ 10 µM

For quick reference, copied from above:
Cc1ccc(-c2ccc(C)cn2)nc1  IC50 (BEL-7404; cell growth or viability, MTT; 48 h): > 50 µM
CC(=O)[O][Pt]([NH2])([NH2])([Cl])([Cl])[O]C(=O)CCCc1ccccc1  IC50 (2008 ovarian adenocarcinoma; cytotoxicity, MTT; 72 h): 0.78 ± 0.2 µM
CN(C)C/C=C/C(=O)Nc1cc2c(Nc3ccc(F)c(Cl)c3)ncnc2cc1O[C@H]1CCOC1  IC50 (BaF3; cell growth or viability; 72 h): 3.3 µM
Cc1nc2ccc(Br)cc2c(=O)n1N  IC50 (LoVo; cytotoxicity, LDH release; 24 h, 50% viability reduction): 1050 ± 64 µM
CC(C)c1ccc(N(C)c2ccc3c(c2)OCC[C@H]3CNc2cnccc2C(=O)O)cc1  IC50 (C2BBe1; cell growth or viability, ATP luminescence; 7 days): ≥ 10 µM
